# Results pooled from the literature.
# A part holds a random share of what one study measured.

# Study 1
# Target: Sal-like protein 4, full length isoform A (SALL4, Homo sapiens, UniProt Q9UJQ4, residues 1-1053)
# UniProt Q9UJQ4, sequence (whole entry, looked up): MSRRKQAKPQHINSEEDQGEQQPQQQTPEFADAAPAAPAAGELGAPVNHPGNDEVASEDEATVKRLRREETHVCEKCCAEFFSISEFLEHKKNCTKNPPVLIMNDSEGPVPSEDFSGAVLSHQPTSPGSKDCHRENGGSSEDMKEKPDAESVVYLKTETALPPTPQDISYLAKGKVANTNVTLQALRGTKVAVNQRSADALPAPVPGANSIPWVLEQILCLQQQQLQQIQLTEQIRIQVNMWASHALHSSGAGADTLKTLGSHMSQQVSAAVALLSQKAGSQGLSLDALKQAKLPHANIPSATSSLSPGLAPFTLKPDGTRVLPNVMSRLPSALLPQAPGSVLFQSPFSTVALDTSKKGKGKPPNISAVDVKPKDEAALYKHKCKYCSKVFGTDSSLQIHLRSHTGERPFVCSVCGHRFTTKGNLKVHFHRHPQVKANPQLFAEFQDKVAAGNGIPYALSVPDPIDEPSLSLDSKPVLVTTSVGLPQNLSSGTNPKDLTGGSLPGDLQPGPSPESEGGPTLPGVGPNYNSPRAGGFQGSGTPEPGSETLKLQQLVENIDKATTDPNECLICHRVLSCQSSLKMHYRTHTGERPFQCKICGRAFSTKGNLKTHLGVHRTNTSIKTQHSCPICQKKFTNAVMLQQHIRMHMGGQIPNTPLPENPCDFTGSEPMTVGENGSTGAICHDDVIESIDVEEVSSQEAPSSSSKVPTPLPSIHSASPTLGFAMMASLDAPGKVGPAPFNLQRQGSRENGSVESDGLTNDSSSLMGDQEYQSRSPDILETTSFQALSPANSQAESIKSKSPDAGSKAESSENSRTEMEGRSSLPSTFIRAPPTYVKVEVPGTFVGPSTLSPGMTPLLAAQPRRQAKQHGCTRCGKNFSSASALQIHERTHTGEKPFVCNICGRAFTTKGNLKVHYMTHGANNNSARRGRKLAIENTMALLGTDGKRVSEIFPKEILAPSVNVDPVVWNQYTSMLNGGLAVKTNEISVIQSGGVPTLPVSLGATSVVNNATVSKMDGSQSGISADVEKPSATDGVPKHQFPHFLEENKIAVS
# Technique: universal PBM
# Form: double-stranded DNA, one strand shown
# Sample: in vitro
# Concentration: 600 nM
# Setting: 8-mer, flanks averaged, mean of replicates
# Direction: higher = stronger binding
Sequence,E-score
TACGCTGA,0.143
CTCTCGTC,-0.0914
GCCCCAAC,-0.2
CACGTTTA,0.21
CAAAGGCC,-0.266
CGATTGTA,0.177
CGATATGA,0.256
ACAGCTGA,-0.143

# Study 2
# Target: Histone acetyltransferase KAT6A, both winged helices, GST fusion (KAT6A, Homo sapiens, UniProt Q92794, residues 1-181)
# Technique: protein binding microarray
# Form: double-stranded DNA, one strand shown
# Sample: in vitro
# Concentration: not given
# Setting: 8-mer, flanks averaged, mean of 2 arrays, mostly near background
# Baseline: not given
# Direction: higher = stronger binding
# Target sequence (chain): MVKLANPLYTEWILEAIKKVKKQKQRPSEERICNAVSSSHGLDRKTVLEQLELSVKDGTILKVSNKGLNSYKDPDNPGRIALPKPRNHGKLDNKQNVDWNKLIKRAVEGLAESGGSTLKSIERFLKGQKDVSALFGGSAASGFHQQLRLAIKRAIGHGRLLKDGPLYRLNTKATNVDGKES
Sequence,E-score
TAAAGCTA,-0.173
ACTGGTAT,-0.0982
CTTGAGCC,-0.162
CAACACTA,-0.008
CACTATCC,-0.0134
TGACCTAA,-0.197
CAGTGTTA,-0.102
ATTCCCGG,0.195

# Study 3
# Target: RNA binding protein fox-1 homolog 2, RRM domain, GST-SBP tag (RBFOX2, Homo sapiens, UniProt O43251-10, residues 100-194)
# Technique: RNA Bind-n-Seq
# Form: RNA
# Sample: in vitro
# Concentration: 365 nM
# Setting: natural RNA segment, single round, ends assumed
# Baseline: no-protein control
# Direction: higher = stronger binding
# All sequences stand within: GGGAGUUCUACAGUCCGACGAUC … UGGAAUUCUCGGGUGCCAA
# Residues (chain): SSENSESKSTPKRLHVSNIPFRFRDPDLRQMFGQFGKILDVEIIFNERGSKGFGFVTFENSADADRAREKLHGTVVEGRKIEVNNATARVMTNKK
Sequence,RBNS enrichment (R)
GCAAUCAAGGGCCCGUUUGGAGAAGCAGAAAUGAUUCCCUCCAGUGCCCUGUCUACCUUCCCCAGGCAAGAAGAGCCAGGAGGGCACAGGGCUUGCACGUCACUCUGGUC,1
GCAUGAUGCCUUUUUGGGGGCUGGGGAUUGAGUCUUGCUGCUCUGCCCAGCCCUGUUCUAUUCUGCAGGGUCCCUGUGUUGGAAUUCUCCCUGGGGAACCUACUUUCUGC,4.05
GGGGAAACUGAGCCAGGUCCAGGCCGAUGAGAAGUUCCCAGUGGGCUGAAGUGGCCACCAGGGGUCAGCAGUGCUCCAGUUGCUGGGCUUAAAGCUUCCUGGUGCCUGUC,0.448
GAAGCCACCCAUGGGGACUGGGGACCAGGGGCCUUCAGCAUGGCUUCUAGGUUCCCUCCUCCCCCUACCCCAUCUCCUACCUCCACAGUACAGACUGUCCCCAACUUAAC,0.577
GCAAAAGCAAUGGUCGGAUGUAAAUAACAUUUAAAGUAUAGUGCACAUAACUUCCCCGGACUGUUCCAAUCUGAUAAUUUGUAAAUGCUUUAGAGUUUUUUUAAUUAACA,0.468
UUCAGCGGCAUCUUAGCAGACUUCAAUAACGCAGCCGUCUCCAUGACGCUCAGAGAGCCCUGCCUCAGCGGCGUCAACGUGAUUAGUUUGCCUAAUUCAUAUUUUCACUU,0.244
UAGUUGAUCACUCUGAGGAGGUGGGUAGCAAGAUGAAUUAGGAGGUCAAGGUCACUGAGAGGAAUUUGUUUAGAUGCCCAGUUUAGAGUGAAUAGAUAUCUGCGGGGAAC,0.636
UCUAAGUGCUGACUGGCUACGUAGUUCGGGCAAAUCCUCCAAAAGGGAAAGGGAGGAUUUGCUUAGAAGGAUGGCGCUCCCAGUGACUACUUUUUGACUUCUGUUUGUCU,0.442

# Study 4
# Target: Replicase polyprotein 1ab, polymerase (rep, Severe acute respiratory syndrome coronavirus 2, UniProt P0DTD1)
# Effect on: enzyme activity
# Mode: inhibitor
# Concentration: 20 µM
SMILES,inhibition [%]
CC1(C)CCC[C@]2(C)[C@H]3CC(=O)O[C@]3(C)CC[C@@H]12,-7.37
CN1CCOC(c2ccccc2)c2ccccc2C1 (centres unmarked),14.8
O=C(O)C1=C(CSc2nnnn2CS(=O)(=O)O)CS[C@@H]2[C@H](NC(=O)[C@H](O)c3ccccc3)C(=O)N12,1.9
C/C(=C\CNc1ncnc2nc[nH]c12)CO,3.55
CC1=C(/C=C/C(C)=C/C=C/C(C)=C/CO)C(C)(C)CCC1,33.3
O=C(NO)c1ccc2[nH]c(=O)c(CCCc3ccccc3)nc2c1,3.87
CC(C)(C)C(=O)C(=Nc1ccc(Cl)cc1)NNc1ccc(Cl)cc1,-5.19
CC(=O)O[C@H]1C[C@@H]2CC[C@@H]3[C@H](CC[C@@]4(C)[C@H]3C[C@H](N3CC[N+](C)(C)CC3)[C@@H]4OC(C)=O)[C@@]2(C)C[C@@H]1N1CC[N+](C)(C)CC1,-1.44
CC(C)C[C@H](NC(=O)[C@@H]1CCCN1)C(=O)NCC(N)=O,1.25
Cc1c(C(=O)NC2CCCCC2)sc2nc3ccc(N)cc3n12,-6.79
CC1(C)O[C@@H]2C[C@H]3[C@@H]4CCC5=CC(=O)CC[C@]5(C)[C@@]4(F)[C@@H](O)C[C@]3(C)[C@]2(C(=O)CCl)O1,-0.49
COC(=O)Nc1nc2ccc(SC(C)C)cc2[nH]1,-2.09
CCc1nc2c(C)nc(C)cc2n1-c1ccc(CCNC(=O)NS(=O)(=O)c2ccc(C)cc2)cc1,-9.18
CCOc1ccc(Cc2cc([C@@H]3O[C@H](SC)[C@@H](O)[C@H](O)[C@H]3O)ccc2Cl)cc1,4.05
CCN(CC)CCN(Cc1ccc(-c2ccc(C(F)(F)F)cc2)cc1)C(=O)Cn1c(SCc2ccc(F)cc2)nc(=O)c2c1CCC2,4.68
COc1cccc(-c2cc(NCc3ccc4c(c3)OCO4)nc(N)n2)c1,-3.15
C=C1[C@@H](C)[C@H]2[C@H](Cc3ccccc3)NC(=O)[C@]23OC(=O)/C=C/[C@H](O)CCC[C@@H](C)C/C=C/[C@H]3[C@@H]1O,-2.1
CCN(CC)CCOC(=O)C(c1ccccc1)C1CCCCC1 (centres unmarked),-0.05
COc1cc(NS(C)(=O)=O)ccc1Nc1c2ccccc2nc2ccccc12,0.25
OC(CCCN1CCCCC1)(c1ccccc1)c1ccccc1,-3.45
Cc1cc2c(N3CCCC3)nc(N3CCCC3)nc2n1C,2.13
O=C(Nc1cc(C(F)(F)F)ccc1O)Nc1cc(C(F)(F)F)ccc1O,-5.79
CCC1=C(C)CN(C(=O)NCCc2ccc(S(=O)(=O)NC(=O)N[C@H]3CC[C@H](C)CC3)cc2)C1=O,-3.98
CO/N=C(\C(=O)N[C@@H]1C(=O)N2C(C(=O)OCOC(=O)C(C)(C)C)=C(/C=C\c3scnc3C)CS[C@H]12)c1csc(N)n1,-3.93
COc1ccc2c(C(=S)N(C)CC(=O)O)cccc2c1C(F)(F)F,-1.33

# Further values, each from its own experiment
# Concentration: 10 µM
Structure (SMILES),tested on,assay,system,setting,scale,endpoint,result
C/C=C1/[C@H](O[C@@H]2O[C@H](CO)[C@@H](O)[C@H](O)[C@H]2O)OC=C(C(=O)OC)[C@H]1CC(=O)OCCc1ccc(O)c(O)c1,SARS-CoV-2,cytopathic effect,Vero E6,,,inhibition,0.3%
CN1CCN(CCCN2c3ccccc3Sc3ccc(C(F)(F)F)cc32)CC1,HEK-293T,"pseudovirus infection, FDA-approved drug library screen",VSV pseudotyped with SARS-CoV-2 spike,16 h,baseline: vehicle-treated,GFP-positive cells,8.63%
S=C=NCc1ccccc1,SARS-CoV-2,cytopathic effect,Vero E6,,,inhibition,-0.3%
Cc1nnc(NS(=O)(=O)c2ccc(N)cc2)s1,HEK-293T/ACE2,,,16 h,baseline: vehicle,viability,102%

# Repeated from above (further values, each from its own experiment):
Structure (SMILES),tested on,assay,system,setting,scale,endpoint,result
S=C=NCc1ccccc1,SARS-CoV-2,cytopathic effect,Vero E6,,,inhibition,-0.3%
C/C=C1/[C@H](O[C@@H]2O[C@H](CO)[C@@H](O)[C@H](O)[C@H]2O)OC=C(C(=O)OC)[C@H]1CC(=O)OCCc1ccc(O)c(O)c1,SARS-CoV-2,cytopathic effect,Vero E6,,,inhibition,0.3%
CN1CCN(CCCN2c3ccccc3Sc3ccc(C(F)(F)F)cc32)CC1,HEK-293T,"pseudovirus infection, FDA-approved drug library screen",VSV pseudotyped with SARS-CoV-2 spike,16 h,baseline: vehicle-treated,GFP-positive cells,8.63%
Cc1nnc(NS(=O)(=O)c2ccc(N)cc2)s1,HEK-293T/ACE2,,,16 h,baseline: vehicle,viability,102%
